Measurements collected from several papers.
Parts stem from different laboratories: compare values within a part only.

Series 1 — technique: RNA Bind-n-Seq; molecule type: RNA; sample: in vitro; concentration: 100 nM; reference: input RNA pool; direction: higher = stronger binding
Target: RING finger protein unkempt homolog, zinc fingers 1-6, SBP tag (UNK, Homo sapiens, UniProt Q9C0B0, residues 30-357)
Sequence of UniProt Q9C0B0 (30-357, looked up): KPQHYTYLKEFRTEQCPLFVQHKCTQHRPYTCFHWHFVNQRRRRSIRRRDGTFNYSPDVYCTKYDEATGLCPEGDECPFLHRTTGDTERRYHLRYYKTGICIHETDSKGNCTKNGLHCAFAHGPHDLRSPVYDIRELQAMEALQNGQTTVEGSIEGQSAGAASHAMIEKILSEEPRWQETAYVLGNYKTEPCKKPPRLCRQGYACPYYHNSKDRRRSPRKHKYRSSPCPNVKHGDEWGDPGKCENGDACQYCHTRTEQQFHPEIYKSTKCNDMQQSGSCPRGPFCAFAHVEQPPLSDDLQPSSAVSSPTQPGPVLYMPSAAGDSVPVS
Notes: RNA with constant flanks, vertebrate orthologous sites, ends assumed
Strand	bound/input enrichment
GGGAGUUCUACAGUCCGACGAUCUCUCUCACUUAGCUGUGUCCAAAAUUGCUAUGAGGGUUGGAAACGUUGAUUAGUUUCAUGUAGAACUACACUGGCAGGUGCUCAAUUACCAUCAUAGCAAGGUCAAAUACCAUCACAGUACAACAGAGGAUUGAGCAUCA	1.22 ratio
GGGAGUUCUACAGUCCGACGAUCAGAAAAUUUUAAUCAAGAAUCUGAAGGUAGAAAUACAGGACCAUGGUUAUCUUCCUCACUUAGAAAUAGAUGCACACCUUUGUUCUCUAGAAGGAGGCGAGAAGGAAGAGAUGAACCAUCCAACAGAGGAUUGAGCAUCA	0.467 ratio
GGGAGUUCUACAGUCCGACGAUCACAAACAACGUAGGAUAUUUGUGCUAUUUAAAAGUGAGCUUUGCUUUUUCUGCUUUAAAGAGAAUACUUUUAUAUUGGGGUGCUUUAAAAGUGUGAAGGUGUGUGCUCCCAUAAUCCCAGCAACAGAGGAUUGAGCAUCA	0.472 ratio
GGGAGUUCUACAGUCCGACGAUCCAGCCGAUUCUCUCAUAGGGAGAGCUGCACACAUUGCUGUUCUUGAUUCAGAAAUAUUUUUAGAAAAGUUCUUUCUGGUUGCUGCCCUAAAAUAUUUCCAGUAGAAGAAAAGCAUUGUAACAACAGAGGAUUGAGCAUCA	0.582 ratio
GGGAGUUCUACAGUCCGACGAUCUUGGGACCAGCUCUCCAAAUAAGAACACUAUUAAAAAAAAUAAGCAAAAUGAUAUUUGUAUAGAAAAAACAGAAGUUAAAUCAUGUAAAGUAGCUGCCAACAUAGCAAGCCCUAAAGAUUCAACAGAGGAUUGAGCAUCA	1.13 ratio
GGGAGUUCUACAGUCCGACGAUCAUUUAGAAUGUGUUUGGUUAUAGUUAGUGGUCUCAUUCCCUCGUUCCUUUUUCAUUAACGUAGCUGUAAUAGUAUGAGUGAAGAGGAGGCUUGUGCCAGUAGACAUUGUUACUGCAUCAGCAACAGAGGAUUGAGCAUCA	0.846 ratio
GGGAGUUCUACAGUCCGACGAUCCUACUGUAAACAACUCAGGGCAGUAUUCUCGAUACCCUUACAGUAACCUAAAUCAGGGAUUAGUUAACAGUACAGGGAUGAAUCAAAAUUUAGGCCUUACAAACAGUACUCCAAUGAAUCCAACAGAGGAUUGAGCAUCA	1.1 ratio
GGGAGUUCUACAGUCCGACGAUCCAAGCUCAGAUGAAGAUGGUGGUUGUACGUUAUCAUUUCAUUUAGAAAAUAUUUUGAAGCUAGGUAUUAAACUGGAAUAGCUAUUAUACCCCCCCGAGAGUGGGGCAGUUGUGCCCUUACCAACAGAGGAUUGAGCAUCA	1.54 ratio
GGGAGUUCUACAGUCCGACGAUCUGUGCUCAUGCUCUUCUAGGGAAGAAAUGAACUGGGGAGAACUGUCCCCUUUUUAUAGAUUAGUUUGUUUCUAAAUUAUGACCAAAAAAUAUUUUGCUAUUUCUUUCUUUAUAUAUGGACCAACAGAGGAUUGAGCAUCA	1.02 ratio
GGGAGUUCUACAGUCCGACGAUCUAUCUUGGUUUGGGGUAGAGGGGAGGGAGGGGCAGGACAGUGUGGAAUCUCUAAGGCGUAUGGUUAGAUAGGUGGCACGAUUAGUUCUGAUUGGGCCUUUAUGUUAAAAACCUCUGGGGGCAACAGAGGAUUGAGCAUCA	0.895 ratio
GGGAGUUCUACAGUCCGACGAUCUCCCAGCACUUUGAUAAAAAGUGUGGACUGGUUGCUUGUAUUUUCCUUAUUCUUUUUAAUUAGUUUUAUUAUGUAUGCUACCAUUCGAACUGAGAGUAUUCGGUGGUUAAUUCCAGGACACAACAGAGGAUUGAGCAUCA	3.38 ratio

Series 2 — technique: protein-binding microarray; molecule type: double-stranded DNA, one strand shown; sample: in vitro; concentration: 0.8 µM; notes: whole 60-bp probe, no competitor; direction: higher = stronger binding
Target: Centromere-binding protein 1, full length, N-terminal tag (CBF1, Saccharomyces cerevisiae, UniProt P17106, residues 1-351)
Sequence of UniProt P17106 (whole entry, looked up): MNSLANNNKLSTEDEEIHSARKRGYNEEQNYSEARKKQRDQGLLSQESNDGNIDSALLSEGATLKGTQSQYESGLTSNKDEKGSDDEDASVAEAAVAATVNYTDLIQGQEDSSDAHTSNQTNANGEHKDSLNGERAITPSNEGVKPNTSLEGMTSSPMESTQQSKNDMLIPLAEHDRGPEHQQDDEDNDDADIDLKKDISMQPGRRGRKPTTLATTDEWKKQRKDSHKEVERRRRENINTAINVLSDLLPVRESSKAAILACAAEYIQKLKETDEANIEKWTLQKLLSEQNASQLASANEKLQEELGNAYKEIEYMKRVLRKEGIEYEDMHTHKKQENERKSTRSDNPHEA
Strand	fluorescence intensity [a.u.]
GAATATTACCTGACTCAGGTGATGGAGTGCTCATAGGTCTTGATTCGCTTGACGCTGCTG	614
GAATTATTCATCTTGTACGTGATAATGTTTCATTAGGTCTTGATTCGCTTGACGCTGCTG	604
GAAAACAATTGAAGAGACGTGACTAATGCTATGTAGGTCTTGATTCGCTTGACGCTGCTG	799
GAATATATGTGTCTGTACATGATGTACTCGGTCTAGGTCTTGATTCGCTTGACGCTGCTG	533
TGTACGAAGCTATAACCGATCACTATAGTAGTTAGGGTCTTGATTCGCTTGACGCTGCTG	514
GAACCACACTATGCTGCACACGTGAAATGATGATAGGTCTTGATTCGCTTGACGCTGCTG	2870
GAAATGCATTAGAATAACGTGCCGTTAATTTTGTAGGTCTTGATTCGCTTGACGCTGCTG	881
TGTACGAAGCTATCGTGGTTGGTTATAGTAGTTAGGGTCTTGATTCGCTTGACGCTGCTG	542
CTATTTCTGAATGAAAACGTGAAAAGCTTCGCCTTCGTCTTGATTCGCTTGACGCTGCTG	605
GAAAAGAAGTTCGGTGCCGTGATTATATGCTTATAGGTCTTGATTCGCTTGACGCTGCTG	535
CCTAACTACTATAACGTGTCAGCATAGCTTCGTACAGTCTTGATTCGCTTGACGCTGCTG	595
TGTACGAAGCTATTCAACGTGGTTATAGTAGTTAGGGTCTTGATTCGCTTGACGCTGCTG	568
CTACGTAATAATCTTCACGCCATCTATATAAATTTCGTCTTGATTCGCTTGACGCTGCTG	564
CTACGACGCCGTAGTCGCGTGCCCTTGCCCTTATTCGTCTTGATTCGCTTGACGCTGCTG	722
GAATAGAAAAGTTATCACCAGAGTAAAAAGGAGTAGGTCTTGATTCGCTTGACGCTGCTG	575
CTAATAATAGTGGTCCATGTGACATCTTTATAATTCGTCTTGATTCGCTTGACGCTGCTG	2890
GAAATCGGGCGTTTCCACGTGTACAAGAACCTGTAGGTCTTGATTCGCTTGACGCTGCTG	3930
GAACTTCTACTACATCAGCTTTTAGATTTTTCATAGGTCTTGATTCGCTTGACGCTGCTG	553
CTAACCAGATAAAAGAGCGTGCTCCGAAGTTAGTTCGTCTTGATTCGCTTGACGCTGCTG	551
GAAAAAAGTAGTTGTCACGTATGTGTCAAATATTAGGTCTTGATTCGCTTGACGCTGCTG	577
CTAATTTAAAGTCCCATCGTGACGCTCATAATATTCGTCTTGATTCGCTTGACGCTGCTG	649
GAATAAAAAGTGTACCACATGTCATTAAAAGTTTAGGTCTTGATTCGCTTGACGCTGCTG	1070
CTATCTATGATACATGACGTGAAATGTGCACGGTTCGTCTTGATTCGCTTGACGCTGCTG	641
TGTACGAAGCTATCTACCGTGCCTATAGTAGTTAGGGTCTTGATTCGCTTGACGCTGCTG	497
GAAAATTATATAAAACACATGCGGATTAGTTCATAGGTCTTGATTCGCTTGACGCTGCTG	585

Series 3 — technique: protein binding microarray; molecule type: double-stranded DNA, one strand shown; sample: in vitro; concentration: not given; reference: not given; direction: higher = stronger binding
Target: Histone acetyltransferase KAT6A, both winged helices, GST fusion (KAT6A, Homo sapiens, UniProt Q92794, residues 1-181)
Notes: 8-mer, flanks averaged, mean of 2 arrays, mostly near background
Residues (chain): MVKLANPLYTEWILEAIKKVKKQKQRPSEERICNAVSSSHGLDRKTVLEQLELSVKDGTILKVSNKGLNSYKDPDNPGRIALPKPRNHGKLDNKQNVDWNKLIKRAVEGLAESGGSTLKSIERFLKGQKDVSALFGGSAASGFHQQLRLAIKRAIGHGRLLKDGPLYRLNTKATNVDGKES
Strand	E-score
TACGAGGA	-0.0609
ACTCTGCT	-0.24
CGCGTCGA	0.293
AGTGACAT	-0.0693
AAACTCAA	-0.0994
TGCACCCA	-0.0987
ATGATGAC	-0.0656
AACTCAAT	-0.184
AACCGGTC	0.147
AAGAATGA	-0.145
TATCGGGA	0.02
CACACGTG	0.0492
AATGAACA	-0.0842
ACCCCCGC	0.19
CAAGGATC	-0.084
CGCACGCC	0.256
CTTAGGGC	-0.0538
ATGAGAAA	-0.127

Series 4 — technique: RNAcompete; molecule type: RNA; sample: in vitro; concentration: 20 nM; notes: 7-mer, probes averaged, single round; reference: mean of 7-mers; direction: higher = stronger binding
Target: PABPC1L2, full length, GST fusion (mouse, UniProt A0ABA7IW68)
Target sequence (chain): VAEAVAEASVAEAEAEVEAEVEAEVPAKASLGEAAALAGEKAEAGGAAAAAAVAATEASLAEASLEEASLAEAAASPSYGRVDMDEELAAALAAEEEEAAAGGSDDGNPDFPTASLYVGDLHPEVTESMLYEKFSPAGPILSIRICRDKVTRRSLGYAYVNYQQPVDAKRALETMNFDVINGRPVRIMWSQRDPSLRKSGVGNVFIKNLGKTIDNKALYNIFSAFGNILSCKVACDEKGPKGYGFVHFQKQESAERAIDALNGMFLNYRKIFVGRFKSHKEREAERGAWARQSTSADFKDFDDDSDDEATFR
Strand	7-mer Z-score
UCCGGGG	-0.0047
CGGCAUU	-0.193
CUUGCAA	-0.235
AGCGAGU	-0.0772
UAAUGGA	-0.0264
CUUCCAG	-0.322
AUAGUUU	-0.316
GAGAGAU	-0.0355
GGAUUUC	-0.291
AUUGACG	-0.0283
CGGAUCC	-0.0645
CUACCUC	-0.351
GCUUGAC	-0.224
UUCUUUA	-0.0301
GGUAGCA	0.131
CACCCGA	-0.184
CGGCAGG	0.171
ACCACCG	0.0334
AGCGCUA	-0.0355
AAAAUUA	4.87
AACUGUC	-0.175
GCUUAGU	-0.219
AUAACUA	0.187
UAUCGUA	-0.222
CGGAUUA	0.0877

Series 5 — technique: universal PBM; molecule type: double-stranded DNA, one strand shown; sample: in vitro; concentration: 600 nM; direction: higher = stronger binding
Target: Sal-like protein 4, full length isoform A (SALL4, Homo sapiens, UniProt Q9UJQ4, residues 1-1053)
Sequence of UniProt Q9UJQ4 (whole entry, looked up): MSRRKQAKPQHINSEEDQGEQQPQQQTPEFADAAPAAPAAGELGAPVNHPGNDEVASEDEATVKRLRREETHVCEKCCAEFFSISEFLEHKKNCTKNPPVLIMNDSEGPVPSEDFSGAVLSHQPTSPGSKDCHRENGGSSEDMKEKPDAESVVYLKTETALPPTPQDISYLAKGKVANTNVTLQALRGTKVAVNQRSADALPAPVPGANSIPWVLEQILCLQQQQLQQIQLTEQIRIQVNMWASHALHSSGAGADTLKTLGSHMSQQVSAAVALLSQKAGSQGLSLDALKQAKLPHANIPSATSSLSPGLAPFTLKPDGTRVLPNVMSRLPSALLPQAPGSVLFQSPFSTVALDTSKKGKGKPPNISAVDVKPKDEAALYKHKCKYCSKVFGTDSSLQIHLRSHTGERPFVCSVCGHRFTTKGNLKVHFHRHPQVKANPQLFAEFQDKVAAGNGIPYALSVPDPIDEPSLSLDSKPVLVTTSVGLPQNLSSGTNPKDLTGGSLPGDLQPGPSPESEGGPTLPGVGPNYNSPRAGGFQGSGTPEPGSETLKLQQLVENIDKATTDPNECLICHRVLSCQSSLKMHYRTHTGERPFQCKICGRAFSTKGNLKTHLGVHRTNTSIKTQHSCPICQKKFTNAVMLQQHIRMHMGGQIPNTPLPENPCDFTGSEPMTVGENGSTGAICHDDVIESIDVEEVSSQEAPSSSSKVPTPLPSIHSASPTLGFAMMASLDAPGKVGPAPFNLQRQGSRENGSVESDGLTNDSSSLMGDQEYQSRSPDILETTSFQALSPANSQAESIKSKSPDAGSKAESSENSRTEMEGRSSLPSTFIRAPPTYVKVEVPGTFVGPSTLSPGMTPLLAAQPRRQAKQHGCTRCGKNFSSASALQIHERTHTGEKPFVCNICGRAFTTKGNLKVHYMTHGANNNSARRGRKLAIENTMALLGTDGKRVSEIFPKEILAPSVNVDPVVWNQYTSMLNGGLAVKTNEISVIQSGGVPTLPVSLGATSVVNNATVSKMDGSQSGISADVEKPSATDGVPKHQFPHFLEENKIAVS
Notes: 8-mer, flanks averaged, mean of replicates
Strand	E-score
AGCCGGCC	-0.332
ACACCGGA	-0.222
GATATGCA	0.253
CAAGAGTA	0.03
CGTCTCTC	-0.0578
AAGATCAC	-0.0379
GGGATCCC	-0.336
CATTCCGC	-0.289
AGACCACA	-0.111
CTAAGACA	0.107
GACGCGAC	-0.245
CCTTAGAA	-0.096
GCTTATCA	0.0167
AACTGACC	-0.198
AGCATGAC	-0.152
TACTCGCA	0.0704
ATTTCTGA	0.101
GGGCAATA	0.115
CCAGACTA	0.0066
GACACACC	-0.155
TCACCCAA	0.0812
TAGAAATA	0.308
ACTAGTTC	0.14
ACCCCTCT	-0.286

Series 6 — technique: protein-binding microarray; molecule type: double-stranded DNA, one strand shown; sample: in vitro; concentration: 940 nM top; notes: 60-bp whole probe; added: salmon DNA 0.4 mg/ml; reference: random background probes; direction: higher = stronger binding; all sequences stand within: GCCTAGCAC … GTCTTGATTCGCTTGACGCTGCTG
Target: Interferon regulatory factor 5, full length, phosphomimetic (IRF5, Homo sapiens, UniProt Q13568-2, residues 1-514, S451D/S453D/S456D/S462D)
Strand	fitted relative affinity [z-score]
GACGGTATCGACTATCGAGACGTGCTA	4.22
GACGAATTGAGTCTCGAGACGTGCTAG	0.883
TCAGCTTTCCTTTATGTACTGTGCTAG	1.04
GACGATTTCGCGTATCGAGACGTGCTA	0.544
TTTGAGCTCTGTCTGGGATGGTGCTAG	-0.844
TTCACTTTCTTTACTTCACTGTGCTAG	2.75
GACGAACTGAGGCTGGAGACGTGCTAG	-0.68
GACGGTTTTGGACTGGGGACGTGCTAG	0.484
GACGGTTTCGCCTATCGGGACGTGCTA	6.57
GACGAACTGGGGACAGGAGACGTGCTA	0.554
TCACCTCTAACTTCCCAACTGTGCTAG	1.01
GACGATCTCAGCCTGGAGACGTGCTAG	0.0534
TTAGGTCTCGGGTATCGGTTAGTGCTA	4.27
TCATAAAACAACTTTCAAACTGTGCTA	0.555
TTAGGTTTCGGTCTTGGTTAGTGCTAG	14.7
GACGGACTGGGGACTGGGGCCGTGCTA	-0.536
TTAGGTATCGGTCTAGGTTAGTGCTAG	10.5
GACGGTCTCCTACTGCTCACGTGCTAG	-0.262
TTAGGACCGCTTTTCCTTTAGTGCTAG	0.035
TCAGGTCTCCTTATCCTTTAGTGCTAG	0.387
GACGATTTCAGTATCGAGGCGTGCTAG	2.22
TTATGACTGGGTATCGGTTAGTGCTAG	3.48
GGCGAACTGAGACTGGAGACGTGCTAG	-0.391

Some of these lines once more (series 4):
Strand	7-mer Z-score
AGCGAGU	-0.0772
UAAUGGA	-0.0264
CUUCCAG	-0.322
AUAGUUU	-0.316
GAGAGAU	-0.0355
GGAUUUC	-0.291
AUUGACG	-0.0283
CGGAUCC	-0.0645
CUACCUC	-0.351
GCUUGAC	-0.224
UUCUUUA	-0.0301
